Published values gathered from unrelated publications.
Every numbered part comes from another study and shows a few of its results, in no order. “And” joins repeats or separate records; there may be more than shown.
Sequence of UniProt Q8NFD2 (whole entry, looked up): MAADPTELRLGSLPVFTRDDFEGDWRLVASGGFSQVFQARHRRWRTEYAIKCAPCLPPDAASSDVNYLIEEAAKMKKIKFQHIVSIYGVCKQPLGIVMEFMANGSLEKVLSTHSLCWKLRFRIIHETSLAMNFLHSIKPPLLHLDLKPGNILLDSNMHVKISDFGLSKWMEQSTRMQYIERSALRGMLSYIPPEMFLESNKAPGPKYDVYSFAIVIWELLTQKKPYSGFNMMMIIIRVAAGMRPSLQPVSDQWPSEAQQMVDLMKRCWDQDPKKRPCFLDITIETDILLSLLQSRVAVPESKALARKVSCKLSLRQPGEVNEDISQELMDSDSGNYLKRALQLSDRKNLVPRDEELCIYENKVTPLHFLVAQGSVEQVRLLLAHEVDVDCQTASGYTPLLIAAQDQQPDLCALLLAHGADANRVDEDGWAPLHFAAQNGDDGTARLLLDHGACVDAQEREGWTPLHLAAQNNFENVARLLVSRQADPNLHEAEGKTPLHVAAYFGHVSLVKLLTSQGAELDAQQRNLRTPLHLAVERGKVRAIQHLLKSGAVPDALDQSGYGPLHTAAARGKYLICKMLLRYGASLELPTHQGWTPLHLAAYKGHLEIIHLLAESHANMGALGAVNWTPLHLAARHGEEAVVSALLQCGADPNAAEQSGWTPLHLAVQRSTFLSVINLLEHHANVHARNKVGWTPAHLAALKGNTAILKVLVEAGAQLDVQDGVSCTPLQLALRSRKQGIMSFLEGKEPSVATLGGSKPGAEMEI
Sequence of UniProt P53671 (whole entry, looked up): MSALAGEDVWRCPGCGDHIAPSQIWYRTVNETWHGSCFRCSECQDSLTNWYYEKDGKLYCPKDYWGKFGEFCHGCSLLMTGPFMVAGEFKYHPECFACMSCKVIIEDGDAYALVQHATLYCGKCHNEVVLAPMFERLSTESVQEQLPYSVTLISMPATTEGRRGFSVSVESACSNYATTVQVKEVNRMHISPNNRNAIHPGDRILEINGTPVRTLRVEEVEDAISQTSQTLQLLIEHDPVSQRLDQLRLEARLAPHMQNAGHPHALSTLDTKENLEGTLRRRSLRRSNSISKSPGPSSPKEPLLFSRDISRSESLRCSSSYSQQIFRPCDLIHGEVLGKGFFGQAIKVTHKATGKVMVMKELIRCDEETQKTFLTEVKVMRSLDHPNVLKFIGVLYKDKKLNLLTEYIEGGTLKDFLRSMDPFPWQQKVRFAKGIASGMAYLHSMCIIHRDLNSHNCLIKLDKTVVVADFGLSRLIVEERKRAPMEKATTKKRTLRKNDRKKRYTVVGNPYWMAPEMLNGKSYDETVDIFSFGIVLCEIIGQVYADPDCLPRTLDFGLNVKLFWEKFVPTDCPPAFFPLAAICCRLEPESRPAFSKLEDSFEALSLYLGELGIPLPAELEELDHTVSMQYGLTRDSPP
Sequence of UniProt P35590 (whole entry, looked up): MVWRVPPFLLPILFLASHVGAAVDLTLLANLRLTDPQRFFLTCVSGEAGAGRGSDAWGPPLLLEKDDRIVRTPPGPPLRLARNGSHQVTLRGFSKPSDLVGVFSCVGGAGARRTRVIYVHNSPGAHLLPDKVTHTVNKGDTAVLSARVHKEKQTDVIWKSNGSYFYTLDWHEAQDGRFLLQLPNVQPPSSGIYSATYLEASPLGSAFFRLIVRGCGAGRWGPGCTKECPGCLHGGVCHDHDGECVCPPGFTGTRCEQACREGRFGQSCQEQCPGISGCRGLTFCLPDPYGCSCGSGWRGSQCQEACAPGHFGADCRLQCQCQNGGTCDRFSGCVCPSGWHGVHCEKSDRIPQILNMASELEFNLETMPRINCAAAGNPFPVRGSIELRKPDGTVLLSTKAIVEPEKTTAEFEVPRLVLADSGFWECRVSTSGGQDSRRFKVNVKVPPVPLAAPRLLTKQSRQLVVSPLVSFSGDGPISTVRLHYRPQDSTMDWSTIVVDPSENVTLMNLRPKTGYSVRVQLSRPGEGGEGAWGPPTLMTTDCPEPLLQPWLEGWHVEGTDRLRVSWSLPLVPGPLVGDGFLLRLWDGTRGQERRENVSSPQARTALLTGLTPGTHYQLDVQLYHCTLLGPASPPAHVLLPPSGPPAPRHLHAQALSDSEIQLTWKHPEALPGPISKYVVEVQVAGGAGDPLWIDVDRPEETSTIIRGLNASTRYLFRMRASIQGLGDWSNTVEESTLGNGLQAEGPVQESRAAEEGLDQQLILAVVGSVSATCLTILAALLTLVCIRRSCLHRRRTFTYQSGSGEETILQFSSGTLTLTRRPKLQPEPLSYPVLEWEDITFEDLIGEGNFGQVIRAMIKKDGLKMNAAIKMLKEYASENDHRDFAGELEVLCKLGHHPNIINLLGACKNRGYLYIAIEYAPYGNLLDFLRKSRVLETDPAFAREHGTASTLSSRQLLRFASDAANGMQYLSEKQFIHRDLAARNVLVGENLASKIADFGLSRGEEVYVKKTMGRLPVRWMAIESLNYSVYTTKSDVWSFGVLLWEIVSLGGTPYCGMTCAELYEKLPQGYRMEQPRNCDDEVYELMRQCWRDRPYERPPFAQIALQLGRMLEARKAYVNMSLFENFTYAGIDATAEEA
Sequence of UniProt P27037 (whole entry, looked up): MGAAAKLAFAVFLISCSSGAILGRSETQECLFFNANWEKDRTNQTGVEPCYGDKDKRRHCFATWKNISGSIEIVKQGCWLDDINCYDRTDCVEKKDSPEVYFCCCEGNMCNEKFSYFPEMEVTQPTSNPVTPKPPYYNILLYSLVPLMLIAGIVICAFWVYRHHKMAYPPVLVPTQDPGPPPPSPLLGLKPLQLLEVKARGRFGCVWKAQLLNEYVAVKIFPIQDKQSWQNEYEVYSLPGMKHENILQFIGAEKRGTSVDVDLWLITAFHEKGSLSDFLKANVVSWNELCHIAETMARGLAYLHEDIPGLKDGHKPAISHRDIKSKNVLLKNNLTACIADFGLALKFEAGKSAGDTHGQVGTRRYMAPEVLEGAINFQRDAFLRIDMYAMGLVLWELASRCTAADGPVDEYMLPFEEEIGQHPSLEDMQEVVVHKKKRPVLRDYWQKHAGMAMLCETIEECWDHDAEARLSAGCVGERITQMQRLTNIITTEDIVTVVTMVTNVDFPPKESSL
Sequence of UniProt Q15349 (whole entry, looked up): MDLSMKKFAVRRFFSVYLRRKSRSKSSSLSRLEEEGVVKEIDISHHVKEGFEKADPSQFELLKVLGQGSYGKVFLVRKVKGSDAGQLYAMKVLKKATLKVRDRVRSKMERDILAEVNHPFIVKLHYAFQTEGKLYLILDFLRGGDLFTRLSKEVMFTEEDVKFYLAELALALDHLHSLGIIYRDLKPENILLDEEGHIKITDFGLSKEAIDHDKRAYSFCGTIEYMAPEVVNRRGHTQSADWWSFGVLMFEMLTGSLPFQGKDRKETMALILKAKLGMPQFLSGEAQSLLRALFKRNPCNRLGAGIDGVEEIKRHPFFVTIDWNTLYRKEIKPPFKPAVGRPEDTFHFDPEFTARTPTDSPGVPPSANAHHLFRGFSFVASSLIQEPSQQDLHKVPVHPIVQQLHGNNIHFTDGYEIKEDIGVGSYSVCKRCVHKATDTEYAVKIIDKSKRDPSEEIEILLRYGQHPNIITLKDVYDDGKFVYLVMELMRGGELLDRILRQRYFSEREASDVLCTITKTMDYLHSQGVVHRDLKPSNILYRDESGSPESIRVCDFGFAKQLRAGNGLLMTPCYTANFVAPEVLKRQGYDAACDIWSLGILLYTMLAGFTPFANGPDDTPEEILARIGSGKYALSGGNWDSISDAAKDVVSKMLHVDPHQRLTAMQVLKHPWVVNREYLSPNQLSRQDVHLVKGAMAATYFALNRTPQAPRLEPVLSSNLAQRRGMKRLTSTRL
Sequence of UniProt Q8IU85 (whole entry, looked up): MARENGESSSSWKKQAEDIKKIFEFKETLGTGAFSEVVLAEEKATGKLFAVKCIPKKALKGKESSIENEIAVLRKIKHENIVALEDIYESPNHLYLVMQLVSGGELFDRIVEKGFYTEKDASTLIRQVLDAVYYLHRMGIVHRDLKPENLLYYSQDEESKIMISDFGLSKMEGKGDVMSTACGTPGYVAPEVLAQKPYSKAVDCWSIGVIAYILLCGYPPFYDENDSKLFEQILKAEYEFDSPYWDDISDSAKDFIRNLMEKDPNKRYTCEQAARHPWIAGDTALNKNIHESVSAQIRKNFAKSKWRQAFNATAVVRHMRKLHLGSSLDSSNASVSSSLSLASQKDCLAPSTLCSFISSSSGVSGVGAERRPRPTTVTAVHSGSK

Series 1 — organism: Sarcocystis neurona; observed: parasite growth; concentration: concentration not given; notes: second screen; reference: untreated
SMILES | log2 fold change
CN(CCOc1ccc(CC2SC(=O)NC2=O)cc1)c1ccccn1.Cl (stereo not shown) | -0.00346
O=C(O)c1cc2ccccc2c(Cc2c(O)c(C(=O)O)cc3ccccc23)c1O.OCCOCCN1CCN(C(c2ccccc2)c2ccc(Cl)cc2)CC1 | 0.15
Nc1nc(=O)[nH]cc1F | 0.0219
CN1[C@@H](CC(=O)c2ccccc2)CCC[C@H]1C[C@H](O)c1ccccc1.Cl | 0.32
O=C1c2c(O)cc(O)cc2OC(c2ccc(O)c(O)c2)C1O (stereo not shown) | 0.21
CC(C)C[C@H](NC(=O)[C@@H](COC(C)(C)C)NC(=O)[C@H](Cc1ccc(O)cc1)NC(=O)[C@H](CO)NC(=O)[C@H](Cc1c[nH]c2ccccc12)NC(=O)[C@H](Cc1cnc[nH]1)NC(=O)[C@@H]1CCC(=O)N1)C(=O)N[C@@H](CCCNC(=N)N)C(=O)N1CCC[C@H]1C(=O)NNC(N)=O | 0.19
Nc1nc(Cl)nc2c1ncn2[C@@H]1O[C@H](CO)[C@@H](O)[C@H]1O | 0.32
CC(C)NCC(O)c1ccc(O)c(O)c1.Cl (stereo not shown) | -0.1
CC(N/C(=N\C#N)Nc1ccncc1)C(C)(C)C.O (stereo not shown) | 0.15
Cl.O.O=C1N(c2ccccc2)c2ccccc2C1(Cc1ccncc1)Cc1ccncc1 | 0.3
CC(Cc1ccccc1)(NC(=O)CN)c1ccccc1.Cl (stereo not shown) | -0.0085

Series 2 — concentration: 1 µM
SMILES: C[C@H](c1cccc(C#N)c1)n1cc(Cl)cc(C(N)=O)c1=N
target | observed | technique | remaining binding
Receptor-type tyrosine-protein kinase FLT3 (FLT3, Homo sapiens, UniProt P36888, D835H) | cell-free assay | competition with immobilised ligand | 80%
Ankyrin repeat and protein kinase domain-containing protein 1 (ANKK1, Homo sapiens, UniProt Q8NFD2) | cell-free assay | competition with immobilised ligand | 98%
Serine/threonine-protein kinase MRCK gamma (CDC42BPG, Homo sapiens, UniProt Q6DT37) |  | competition binding | 77%
G protein-coupled receptor kinase 3 (GRK3, Homo sapiens, UniProt P35626) | cell-free assay | competition with immobilised ligand | 76%
Tyrosine-protein kinase Fer (FER, Homo sapiens, UniProt P16591) | cell-free assay | competition with immobilised ligand | 100%
Tyrosine-protein kinase receptor Tie-1 (TIE1, Homo sapiens, UniProt P35590) | cell-free assay | competition with immobilised ligand | 100%
Dual specificity tyrosine-phosphorylation-regulated kinase 1B (DYRK1B, Homo sapiens, UniProt Q9Y463) | cell-free assay | competition with immobilised ligand | 63%
MAP kinase-activated protein kinase 2 (MAPKAPK2, Homo sapiens, UniProt P49137) | cell-free assay | competition with immobilised ligand | 100%
LIM domain kinase 2 (LIMK2, Homo sapiens, UniProt P53671) | cell-free assay | competition with immobilised ligand | 100%
Serine/threonine-protein kinase MRCK beta (CDC42BPB, Homo sapiens, UniProt Q9Y5S2) | cell-free assay | competition with immobilised ligand | 85%
Calcium/calmodulin-dependent protein kinase type 1D (CAMK1D, Homo sapiens, UniProt Q8IU85) | cell-free assay | competition with immobilised ligand | 97%
Calcium/calmodulin-dependent protein kinase type II subunit alpha (CAMK2A, Homo sapiens, UniProt Q9UQM7) | cell-free assay | competition with immobilised ligand | 100%
Casein kinase I isoform alpha (CSNK1A1, Homo sapiens, UniProt P48729) | cell-free assay | competition with immobilised ligand | 86%
Ribosomal protein S6 kinase alpha-2, C-terminal kinase domain (RPS6KA2, Homo sapiens, UniProt Q15349) | cell-free assay | competition with immobilised ligand | 62%
Proto-oncogene tyrosine-protein kinase receptor Ret (RET, Homo sapiens, UniProt P07949) | cell-free assay | competition with immobilised ligand | 94%
Activin receptor type-2A (ACVR2A, Homo sapiens, UniProt P27037) | cell-free assay | competition with immobilised ligand | 100%
Glycogen synthase kinase-3 beta (GSK3B, Homo sapiens, UniProt P49841) | cell-free assay | competition with immobilised ligand | 95%

Series 3 — species: mouse; medium: microsomes or S9; concentration: 2 µM; time: 0.5 h
SMILES | remaining compound
CN1CCN(C(=O)N2CCCN(C(=O)C[C@@H](Cc3cc(F)c(F)cc3F)NC(=O)OC(C)(C)C)CC2)CC1 | 16.2%
Cc1c(-c2cc(Cn3ccnc3C(C)C)on2)cnn1C | 2.23%
CCC(C)c1ccc(-c2c(C)sc(N)c2C#N)cc1 (stereo not shown) | 7.79%
O=C(NC1CCN(Cc2ccc(OC3CCNCC3)c(Br)c2)CC1)c1cc2cc(F)ccc2n1S(=O)(=O)c1ccccc1 | 71.1%
CC(C)c1cc(C(=O)N2C[C@@H]3CC[C@H](C2)N(C)C3=O)c(O)c(C(C)C)c1 | 13%
O=c1c(O)c(-c2ccccc2)oc2cc(O)ccc12 | 1.08%
CN(C)CCCNC(=O)c1c(OCC2CC2)cc(=O)n2c1CCCCC2 | > 99%
O=c1[nH]cnc2c1nnn2Cc1cc(F)cc(F)c1 | 89.8%
O=S(=O)(/N=C(\NC1CCCCC1)c1ccccc1)c1ccccc1 | 6.76%
Cc1ccc(-n2nc(C)c(NCc3cnn(C)c3)c2C)cc1 | 31.6%

Series 4 — cell line: mouse MPNST tumor cells; technique: high-content immunofluorescence imaging; item: nuclear SOX9; concentration: 10 µM; time: 12 h; notes: mean of 2 replicates; reference: DMSO control; reading: higher = more nuclear SOX9
SMILES | nuclear SOX9 intensity
Cc1cc(C)cc(-c2cnc3cc(Cl)c(-c4cccc(O)c4)cc3c2OCCCN)c1 | 205 % of DMSO
COc1cc2c(CCNC(C)=O)c[nH]c2cc1Cl | 93.1 % of DMSO
CCC(=O)NCC[C@@H]1CCc2ccc3c(c21)CCO3 | 99.3 % of DMSO and 110 % of DMSO
O=C(O)[C@H]1CCCC[C@H]1C(=O)N1CCc2ccccc2[C@H]1CN1C(=O)c2ccccc2C1=O | 96.6 % of DMSO
Cc1nc2cnc3ccc(C#Cc4cccnc4)cc3c2n1-c1ccc(C(C)(C)C#N)cc1 | 111 % of DMSO
Cc1ccc(Nc2ncc3c(n2)N(C)C(=O)N(c2cc(NC(=O)c4cccc(C(F)(F)F)c4)ccc2C)C3)cn1 | 150 % of DMSO
CN(C)CCN(Cc1ccc(Cl)cc1)c1ccccn1 | 162 % of DMSO
Cc1cc(C)c(/C=C2\C(=O)Nc3ccccc32)[nH]1 | 137 % of DMSO
